# Measurements collected from several papers.
# A part holds a random share of what one study measured. Changes are numbered by the printed parent chain.

# Sample 1 — method: aptamer microarray, sandwich; molecule type: DNA with 2'F-ANA; sample: in vitro; tested at: 200 nM; together with: Cy3 exosite-II aptamer, 400 nM; direction: higher = stronger binding; sequence: GGTTGGTGTGGTTGG
# Target: Prothrombin, mature alpha-thrombin (F2, Homo sapiens, UniProt P00734)
# Setting: whole 15-mer aptamer, many near background
Modification,mean fluorescence intensity
2'F-ANA at 1 3 5 6 8 9 12 13,84.2 a.u.
2'F-ANA at 2 3 4 7 8 10 11 12 13 14 15,159 a.u.
2'F-ANA at 2 3 4 7 9 11 15,500 a.u.
2'F-ANA at 3 4 7 10 11 12,387 a.u.
2'F-ANA at 1 3 5 6 13 14,50.5 a.u.
2'F-ANA at 8 9 11 13 14 15,151 a.u.
2'F-ANA at 1 2 3 10 14 15,51 a.u.
2'F-ANA at 1 2 3 4 6 8 12 13 15,265 a.u.
2'F-ANA at 1 2 6 8 13 14,53.3 a.u.
2'F-ANA at 2 3 5 9 13 14,50.6 a.u.
2'F-ANA at 1 5 6 8 9 10 13 14,48.3 a.u.
2'F-ANA at 1 4 5 7 9 10 12 13 14 15,46.5 a.u.
2'F-ANA at 2 3 6 7 8 10 12,445 a.u.
2'F-ANA at 1 2 3 5 6 8 10 13,53.9 a.u.
2'F-ANA at 3 4 5 7 9 14 15,55.4 a.u.
2'F-ANA at 5 8 9 10 12 13 15,69.3 a.u.
2'F-ANA at 4 6 9 10 12 13 15,104 a.u.
2'F-ANA at 4 5 7 10 11 12 13 14,42.7 a.u.
2'F-ANA at 1 2 3 4 5 6 7 8 11 13 15,58.8 a.u.
2'F-ANA at 7 10 11 12 13 14 15,108 a.u.
2'F-ANA at 1 4 5 7 8 9 12 13 15,73.6 a.u.
2'F-ANA at 1 2 7 8 9 13 14 15,63.9 a.u.
2'F-ANA at 4 5 6 7 9 11 12 13 14,49.1 a.u.
2'F-ANA at 3 5 6 7 9 13 15,80.9 a.u.
2'F-ANA at 1 2 5 7 9 10,46.4 a.u.

# Sample 2 — method: protein-binding microarray; molecule type: double-stranded DNA, one strand shown; sample: in vitro; tested at: 250 nM; setting: 60-bp whole probe; together with: salmon DNA 0.4 mg/ml; reference: random background probes; direction: higher = stronger binding; constant ends, left off below: GCCTAGCAC … GTCTTGATTCGCTTGACGCTGCTG
# Target: Interferon regulatory factor 7, full length, phosphomimetic (IRF7, Homo sapiens, UniProt Q92985, residues 1-503, S101K/S471D/S472D/S475D/S476D/S477D/S483D/S484D/S487D)
# Target sequence (chain): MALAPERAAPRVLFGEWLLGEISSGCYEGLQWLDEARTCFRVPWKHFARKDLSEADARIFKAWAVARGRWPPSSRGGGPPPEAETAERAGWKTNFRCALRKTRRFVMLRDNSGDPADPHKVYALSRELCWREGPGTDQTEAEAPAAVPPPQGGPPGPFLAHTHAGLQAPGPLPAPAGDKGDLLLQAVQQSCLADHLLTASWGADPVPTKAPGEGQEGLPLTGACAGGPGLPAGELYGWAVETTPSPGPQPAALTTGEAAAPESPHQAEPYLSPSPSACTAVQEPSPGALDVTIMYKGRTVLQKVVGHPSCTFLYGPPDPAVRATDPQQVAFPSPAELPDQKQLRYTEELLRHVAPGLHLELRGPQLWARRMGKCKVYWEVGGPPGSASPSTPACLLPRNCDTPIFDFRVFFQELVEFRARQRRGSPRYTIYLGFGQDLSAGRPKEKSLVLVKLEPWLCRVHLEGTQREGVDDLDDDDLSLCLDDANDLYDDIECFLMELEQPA
Sequence,log fluorescence
GACGGTTTCGGCACTGGGGACGTGCTA,1.65 z-score
TTAGGTTTCGGGTACCGGTTAGTGCTA,6.34 z-score
TCAAATCTCTTTCCTTAACTGTGCTAG,0.724 z-score
TTAGGAATGGACTATCGGTTAGTGCTA,-0.0805 z-score
GACGGTTACCTTCTCCTGACGTGCTAG,0.174 z-score
TCAGTTTCCATTTTCAGACTGTGCTAG,8.3 z-score
TTAGGTTCCGGTTTCGGATAGTGCTAG,9.49 z-score
GACGATTTCGGGTTTAGAGACGTGCTA,1.25 z-score
TTAGAACTGAGACTGGGTTAGTGCTAG,-0.112 z-score
TAAGGTTTCGGGTATCGGTTAGTGCTA,8.18 z-score
TTAGGACCGCTTCTCCTTTAGTGCTAG,3.19 z-score
AGAGCTGTCCTTTGCAACAGGTGCTAG,-0.902 z-score
TCACATATACACTGTGTAACTGTGCTA,0.217 z-score
GACGGACTGCTTCGCCTGACGTGCTAG,-0.427 z-score
TTAGATCTCAGACCGGATTAGTGCTAG,0.249 z-score
TTAGGTCTCCTTTTCCATTAGTGCTAG,1.99 z-score
TTAGGTATCCTTCACCTTTAGTGCTAG,0.0424 z-score
TTAGGTATCTTACTGCTTTAGTGCTAG,-0.245 z-score
TCTGGTTCCCATTCCAGGGTGTGCTAG,2.25 z-score

# Sample 3 — method: RNA Bind-n-Seq; molecule type: RNA; sample: in vitro; tested at: 365 nM; reference: no-protein control; direction: higher = stronger binding
# Target: RNA binding protein fox-1 homolog 2, RRM domain, GST-SBP tag (RBFOX2, Homo sapiens, UniProt O43251-10, residues 100-194)
# Setting: natural RNA segment, single round, ends assumed
# Target sequence (chain): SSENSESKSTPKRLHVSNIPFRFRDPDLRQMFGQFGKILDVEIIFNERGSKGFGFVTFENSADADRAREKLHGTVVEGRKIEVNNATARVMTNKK
Sequence,RBNS enrichment (R)
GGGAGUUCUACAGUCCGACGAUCGAAGGCAUGAGGCACUCUCUGAUGGCUUGCUAGUCAAAACUGGAAGGAUUUUCCUUAGGACAGGUGUGACCUUCUGGUCCCUCUGUCCCAUUGCCCUCUCGUAUUCCAUUUGGAAUUCUCGGGUGCCAA,0.229
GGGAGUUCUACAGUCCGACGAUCUUGGGAAUAGAAUUUAAAAUUGGAUUAAGAUUUUAUUUCCAGUUUUUUUUAUUUAUUUAUUUUUUUUUUUGAGACGGAGUCUUGCUCUGUCGCCCAGGCUGAAGUGCGGUUGGAAUUCUCGGGUGCCAA,1.05
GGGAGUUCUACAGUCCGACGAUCUAAUUGUCUUCAGAUAUAUCAUCAUAACUGAUGCAAGAUAAGGUGAAAUCUUGCAUCUUCAAGAAAAGAUUAAAAUAGUAAAAGUAUCUUAAAUUUCCUGAUAUUUAUGUUGGAAUUCUCGGGUGCCAA,0.583
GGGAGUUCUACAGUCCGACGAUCCAGCCAGGCUGGGGAGCAGAGCAACCAGCACAGCAUGGCUGCUGCCCUUUUAUUUAUUGGACCAGAAACUCGCAUAUCACUUCCAGAGGAACAGGCCUCAGGAAUAUUUCUGGAAUUCUCGGGUGCCAA,0.973
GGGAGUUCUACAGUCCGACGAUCUAGUUUCUUAAUUAUCUAACUCACACGAGGGUAAGUUUUUUGUUGGUUUCUUUUUUGGAGUCCUGAGUUCAAAGGGGACAGAACUAAGGGCAGGAGAAGAGAAUGGAUGUUGGAAUUCUCGGGUGCCAA,1.88
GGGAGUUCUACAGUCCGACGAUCCUAGAGCGCUCAGCAGGUGAAGGCAGCAGGGGCCAUGGCCGGGAGCCAGGCCUAGCUUUGAACUGAGUUUCAAGGGCUGCCAAAGAGGGGCAGUGGGUUGGGGUUGUUUUUGGAAUUCUCGGGUGCCAA,0.73
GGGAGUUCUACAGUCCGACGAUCUGGGUAAAUUGCAUUUCAAACUAACUCAAUAUUCAGUGUUUUUGUUAAAACCUUGAACACUCCAGUUGACUGCAUCUGUGCUAGUGUGGUAUAUCAUACAUGAUCUUAAAUGGAAUUCUCGGGUGCCAA,1.24
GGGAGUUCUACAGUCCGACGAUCGAUCUUCUUCAGACAGCACUGCUGGAGUUAAGGAGUAGCUCGAGGUGAAGCUGGAUGGGGGAUCCAGUGGAGCAGGAGUUGACGGACAGUCCGUUCACAUCGCUGUGUUUUGGAAUUCUCGGGUGCCAA,0.528
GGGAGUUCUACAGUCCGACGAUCUCCCCUGACCCAGACCUAGAACCUGGAGAAGCCAAUAAAGACCUACAGGAUGCAACUAUUCCCAAUCCUUUCCAGAAUGUCACUCACUCCCUUGGGCUGUUGUGGGAAAAUGGAAUUCUCGGGUGCCAA,0.898
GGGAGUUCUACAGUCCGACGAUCAAAUAUGAGAACAAGGUACAUGCAUUAUGUGUCACAUUACUGGGCAAACUGUUCAAGUAUUUUUUUUUAAACCUCCCUGUAUAGAAAAAAAUCAUUAAGGAUGUAAAAGCUGGAAUUCUCGGGUGCCAA,0.726
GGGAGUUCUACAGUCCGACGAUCGUGGGUGUUGGCUGGGGCAUUAAAACUCAUCAUCGCCACCCAUCUCUGUCUCUCGUCACCCUGAUCUCCCCGCACGGUUGUGUCCCUGGUCUGGAACAUUAGUUUUUUUAUGGAAUUCUCGGGUGCCAA,0.999
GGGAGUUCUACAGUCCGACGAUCAAUGCUGUGUAGCUGGAGUUCACGCUCACAGCCUUUAGCGCUUUGUUGCUUGUUUUGUUUUAAUCUGAAGGUUCUGGUAACCUGUUUUUGUUUGUUUGUUUAUUUGUUUUUGGAAUUCUCGGGUGCCAA,38.1

# Sample 4 — target: CCNB1, cyclin fold, Cln2 fusion (human); method: yeast growth competition, sequencing; sample: yeast; setting: weak parent motif; reference: not given; direction: higher = stronger binding
# Parent: CDKN1B docking peptide (human); PSACRNLFGPVDH
Change,normalised enrichment score
PSACGNLFGPVDH [R5G],-0.00609
PAACRNLFGPVDH [S2A],0.744
PSACRNLFGMVDH [P10M],0.159
PYACRNLFGPVDH [S2Y],-0.231
PSACRNLFGPKDH [V11K],0.554
PSACRNLFGPVDV [H13V],-0.22
PNACRNLFGPVDH [S2N],0.628
PSACRNLFGPVMH [D12M],0.358
PSACRNLFVPVDH [G9V],0.491
PSACVNLFGPVDH [R5V],0.518
PSACRNLQGPVDH [F8Q],0.574
PSACRKLFGPVDH [N6K],1.06
PSACINLFGPVDH [R5I],0.209
PSACRNLFHPVDH [G9H],1.11
PSACRNLVGPVDH [F8V],-0.365
PSACRNWFGPVDH [L7W],-0.00275
PSACRNLFGPVSH [D12S],-0.0699
PSACRNLFGQVDH [P10Q],0.986
PSACRNLLGPVDH [F8L],-0.00382
PSACRNEFGPVDH [L7E],0.296
PSACRELFGPVDH [N6E],0.212
DSACRNLFGPVDH [P1D],-0.175
PSACRNMFGPVDH [L7M],0.512
PSACRMLFGPVDH [N6M],0.535
PSACFNLFGPVDH [R5F],0.37

# Some of these lines once more (sample 1):
Modification,mean fluorescence intensity
2'F-ANA at 2 3 4 7 9 11 15,500 a.u.
2'F-ANA at 3 4 7 10 11 12,387 a.u.
2'F-ANA at 1 3 5 6 13 14,50.5 a.u.
2'F-ANA at 8 9 11 13 14 15,151 a.u.
2'F-ANA at 1 2 3 10 14 15,51 a.u.
2'F-ANA at 1 2 3 4 6 8 12 13 15,265 a.u.
2'F-ANA at 1 2 6 8 13 14,53.3 a.u.
2'F-ANA at 2 3 5 9 13 14,50.6 a.u.
2'F-ANA at 1 5 6 8 9 10 13 14,48.3 a.u.
2'F-ANA at 1 4 5 7 9 10 12 13 14 15,46.5 a.u.
2'F-ANA at 2 3 6 7 8 10 12,445 a.u.
